Experimental data pooled from the literature.
Each numbered part is a random draw from the data of one study; scales do not carry over between parts.

Block 1
Target: Ras GTPase-activating protein-binding protein 1, full length (G3BP1, Homo sapiens, UniProt Q13283)
Sequence of UniProt Q13283 (whole entry, looked up): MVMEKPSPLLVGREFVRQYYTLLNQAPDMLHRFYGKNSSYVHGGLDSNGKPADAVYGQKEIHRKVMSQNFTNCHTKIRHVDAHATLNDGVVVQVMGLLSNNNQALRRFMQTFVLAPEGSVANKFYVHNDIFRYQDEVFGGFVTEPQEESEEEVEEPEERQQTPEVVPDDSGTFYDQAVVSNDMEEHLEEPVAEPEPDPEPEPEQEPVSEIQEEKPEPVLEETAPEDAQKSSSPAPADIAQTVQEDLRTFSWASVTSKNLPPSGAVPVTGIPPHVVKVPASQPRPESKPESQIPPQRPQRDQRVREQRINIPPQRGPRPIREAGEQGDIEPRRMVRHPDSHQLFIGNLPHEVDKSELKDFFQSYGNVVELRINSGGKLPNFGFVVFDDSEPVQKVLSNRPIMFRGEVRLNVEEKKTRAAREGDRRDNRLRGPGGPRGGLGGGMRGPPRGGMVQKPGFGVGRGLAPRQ
Method: RNA Bind-n-Seq
Form: RNA
Matrix: in vitro
Concentration: 200 nM
Setting: whole 134-nt RNA, ends assumed
Added: 150 mM KCl
Reference: input library
Reading: higher = stronger binding
`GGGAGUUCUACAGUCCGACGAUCUGAAUCCUUCCUUGAUGAUGAAGAGGUAUGUCAACAAGGGUAAUAAUUUGUUUUCUUCUGAUUACUCUCAUAUUUUUAUUAUCUUUUAUUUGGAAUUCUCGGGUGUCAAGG` gave a log2 enrichment of -1.43.
`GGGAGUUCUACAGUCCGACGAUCUAACUUUAGAGGAGGAUCUGAUGGAUAGGGCAGUGGACGUGGAUUUGGGGAUGGCUAUAAUGGGUAUGGAGGAGGACCUGGAGGUGGCAAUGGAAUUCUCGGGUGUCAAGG` has a log2 enrichment of 0.587.
`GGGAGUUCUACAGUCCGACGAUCCACAGACAACACGCACCCACACAGACUCAGAGGGAAGGGGUUGGGAUGGGGACAGGGUGCACAGCAGGGCGGGGUAGGACCCCAGCCCCUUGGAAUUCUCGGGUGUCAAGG` gave a log2 enrichment of 2.
For `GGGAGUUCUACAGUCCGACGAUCUCCUGUGCUACACAUCGUAUGUACCGAAUCGGGGAGGGGUUUUUUUGGGGAAAAAGGGGAAAGUAUUAUGUUACGCCGUUCGGAUCUGCAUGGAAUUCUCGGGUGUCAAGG`, the log2 enrichment was 0.607.
`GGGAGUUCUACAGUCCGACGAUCCCUGUGCUACACAUCGUAUGUACCGAAUCAAAGUGUGUGUGUGUAAAGUGUGUGUGUAAAAAAGUAUUAUGUUACGCCGUUCGGAUCUGCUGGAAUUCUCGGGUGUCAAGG` has a log2 enrichment of -0.271.
For `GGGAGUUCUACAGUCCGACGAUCCCUCAAGUCCUGUGCUACACAUCGUAUGUACCGAAUCGGGAGGGGAGGAGGGAAAGUAUUAUGUUACGCCGUUCGGAUCUGCACUUCCAGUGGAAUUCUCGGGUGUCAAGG`, the log2 enrichment was 1.07.
`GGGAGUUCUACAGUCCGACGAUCACCAUGCAGGUGGGCAUCUUUGGGAAGUGGGGCAAGGGGGGGAUAGGGAGGGGGGUAUCACUUUGGGAACAGGUGGUCCCAGGUCGUUUCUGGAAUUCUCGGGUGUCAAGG` has a log2 enrichment of 1.49.
For `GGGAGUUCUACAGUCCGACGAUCUGGAAGGAACGAGCCAGGAAGAGGGACUGGAACCAUCUCAGAAGCCAUGCCCCUCAGGCUGGAACUUGCCCUGUCUCCUCGCAGAUGAGGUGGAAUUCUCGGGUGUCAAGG`, the log2 enrichment was -1.72.
The log2 enrichment of `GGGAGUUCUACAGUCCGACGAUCCUGUGCUACACAUCGUAUGUACCGAAUCGGCCCCCCCGGGGCCCCCCCGGGCCCCCCCGGGGAAAGUAUUAUGUUACGCCGUUCGGAUCUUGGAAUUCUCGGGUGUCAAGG` is reported as -1.76.

Block 2
Target: Sal-like protein 4, full length isoform A (SALL4, Homo sapiens, UniProt Q9UJQ4, residues 1-1053)
Sequence of UniProt Q9UJQ4 (whole entry, looked up): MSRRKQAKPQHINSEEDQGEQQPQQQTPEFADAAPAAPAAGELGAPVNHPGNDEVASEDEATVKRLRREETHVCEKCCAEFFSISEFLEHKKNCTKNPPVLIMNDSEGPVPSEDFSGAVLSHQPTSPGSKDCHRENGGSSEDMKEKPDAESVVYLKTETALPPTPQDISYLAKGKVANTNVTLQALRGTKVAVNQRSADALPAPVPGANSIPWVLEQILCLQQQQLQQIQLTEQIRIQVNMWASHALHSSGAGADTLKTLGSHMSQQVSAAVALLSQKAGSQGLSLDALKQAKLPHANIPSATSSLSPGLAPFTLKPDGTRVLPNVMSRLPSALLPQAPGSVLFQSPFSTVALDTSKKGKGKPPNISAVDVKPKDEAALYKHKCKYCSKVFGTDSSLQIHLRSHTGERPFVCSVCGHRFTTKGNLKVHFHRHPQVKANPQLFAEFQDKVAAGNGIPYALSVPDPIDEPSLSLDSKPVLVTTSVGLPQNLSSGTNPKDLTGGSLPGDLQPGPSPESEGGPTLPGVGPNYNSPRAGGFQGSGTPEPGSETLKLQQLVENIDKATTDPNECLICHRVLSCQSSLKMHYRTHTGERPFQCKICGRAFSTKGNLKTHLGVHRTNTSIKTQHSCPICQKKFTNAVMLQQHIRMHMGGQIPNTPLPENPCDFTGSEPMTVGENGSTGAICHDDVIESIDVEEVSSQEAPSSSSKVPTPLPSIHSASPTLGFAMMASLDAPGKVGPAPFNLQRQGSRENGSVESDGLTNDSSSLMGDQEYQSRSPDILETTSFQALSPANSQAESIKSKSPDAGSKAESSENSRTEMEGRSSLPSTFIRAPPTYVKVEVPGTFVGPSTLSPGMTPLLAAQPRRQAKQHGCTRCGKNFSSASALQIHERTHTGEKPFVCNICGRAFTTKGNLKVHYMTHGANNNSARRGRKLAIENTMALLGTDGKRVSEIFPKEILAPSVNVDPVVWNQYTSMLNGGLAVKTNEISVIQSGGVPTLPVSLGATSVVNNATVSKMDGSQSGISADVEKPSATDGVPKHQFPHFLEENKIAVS
Method: universal PBM
Form: double-stranded DNA, one strand shown
Matrix: in vitro
Concentration: 600 nM
Setting: 8-mer, flanks averaged, mean of replicates
Reading: higher = stronger binding
`CGGTGTGC` gave an E-score of -0.276.
`TAGGCGAA` gave an E-score of 0.163.
For `AACAAAGG`, the E-score was 0.0289.
`ACGACGCC` gave an E-score of -0.288.
The E-score of `ATGCTATC` is reported as 0.0623.
`AGTCGTAC` has an E-score of -0.0883.
The E-score of `AGCACCTC` is reported as -0.24.
`ATTAACAG` has an E-score of 0.179.
The E-score of `GGGGTCGA` is reported as -0.239.
The E-score of `CGCGTATC` is reported as -0.0138.
The E-score of `CGATAGAG` is reported as -0.0356.
The E-score of `CGGTTATA` is reported as 0.242.
`AGGTCCGC` has an E-score of -0.397.
`GCTGACAC` gave an E-score of -0.103.
`AGACACGA` gave an E-score of 0.0225.
With `AGCTGTAA` the E-score was 0.0621.
`AGAGATGC` has an E-score of -0.136.
`GGGCCAAA` has an E-score of -0.2.
`ACATAGAG` gave an E-score of 0.0348.
With `CCACTGAA` the E-score was -0.000765.
`GTGTATTA` gave an E-score of 0.318.
The E-score of `ACTCCAAC` is reported as -0.0749.

Block 3
Target: Centromere-binding protein 1, full length, N-terminal tag (CBF1, Saccharomyces cerevisiae, UniProt P17106, residues 1-351)
Sequence of UniProt P17106 (whole entry, looked up): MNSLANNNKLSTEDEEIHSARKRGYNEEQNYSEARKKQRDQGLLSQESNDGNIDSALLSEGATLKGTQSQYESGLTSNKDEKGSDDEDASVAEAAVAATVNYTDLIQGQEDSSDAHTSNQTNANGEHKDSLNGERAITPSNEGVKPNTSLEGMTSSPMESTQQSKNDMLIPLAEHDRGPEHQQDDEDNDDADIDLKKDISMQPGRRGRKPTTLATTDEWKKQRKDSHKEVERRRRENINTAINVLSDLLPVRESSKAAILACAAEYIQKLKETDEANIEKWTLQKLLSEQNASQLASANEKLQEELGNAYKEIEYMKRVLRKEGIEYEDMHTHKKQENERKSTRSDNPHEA
Method: protein-binding microarray
Form: double-stranded DNA, one strand shown
Matrix: in vitro
Concentration: 0.8 µM
Setting: whole 60-bp probe, no competitor
Reading: higher = stronger binding
`CTACATACTTACCATCACCTCCCTCGACAAATATTCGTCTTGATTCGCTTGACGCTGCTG` gave a fluorescence intensity of 528 a.u.
The fluorescence intensity of `CTAAACTTTTAGTAGCACGTTTATTATTGCTTTTTCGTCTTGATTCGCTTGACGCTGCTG` is reported as 673 a.u.
`CCTAACTACTATAGGCGTGTGATATAGCTTCGTACAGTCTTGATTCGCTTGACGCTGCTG` has a fluorescence intensity of 611 a.u.
The fluorescence intensity of `CTAGGTTTATATATTCACGAGTTTCCTACTTCATTCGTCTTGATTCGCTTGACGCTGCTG` is reported as 572 a.u.
The fluorescence intensity of `GAAGCTGCATGAGCATCGGTGACGGTGATTTCATAGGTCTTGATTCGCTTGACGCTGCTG` is reported as 508 a.u.
With `CTATTTCTAGTTTATCACGTCTCATAATCACTGTTCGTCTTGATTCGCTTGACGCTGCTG` the fluorescence intensity was 693 a.u.
`CTAGGCGCCGTGCACCACGTCAATTTGACAGAGTTCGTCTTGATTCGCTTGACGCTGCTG` gave a fluorescence intensity of 489 a.u.
The fluorescence intensity of `GAATAGTTATTGTTGCTCGTGCAGTGATGTGCTTAGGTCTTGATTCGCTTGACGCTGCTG` is reported as 659 a.u.
`GAACGTATGTTGAAAAACGTGCGTAAATAAGGCTAGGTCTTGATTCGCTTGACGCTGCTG` gave a fluorescence intensity of 749 a.u.
`CTATTTTCGACGTTAGACGTGCTTCGGCAGATATTCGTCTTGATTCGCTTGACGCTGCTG` has a fluorescence intensity of 501 a.u.
With `CCTAACTACTATAGCACCGTGGAATAGCTTCGTACAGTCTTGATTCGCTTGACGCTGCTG` the fluorescence intensity was 512 a.u.
The fluorescence intensity of `CCTAACTACTATAATAGCATGACATAGCTTCGTACAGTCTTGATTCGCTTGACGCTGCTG` is reported as 564 a.u.
With `GAACATATCGTTTACCACGTCGCCCCTTTTGTATAGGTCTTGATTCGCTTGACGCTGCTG` the fluorescence intensity was 518 a.u.
The fluorescence intensity of `GAAGATCTTTAAAAGGTGATGAAAGATGCACCATAGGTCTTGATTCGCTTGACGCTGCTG` is reported as 542 a.u.
`GAAATTTGATCATAGCATGTGCTCTATATTGTATAGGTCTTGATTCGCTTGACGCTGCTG` has a fluorescence intensity of 1050 a.u.
With `GAACAAAATCGAAGTGCCCACGTGCTGCTCATTTAGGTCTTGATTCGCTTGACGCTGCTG` the fluorescence intensity was 6250 a.u.
`GAAAACTCGTCAAGTCACGTTTGGTGGACGGCCTAGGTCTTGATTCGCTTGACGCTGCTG` gave a fluorescence intensity of 1260 a.u.
With `CTAGGTTCTTTTTCCCACGTATCGGTCCCTGAGTTCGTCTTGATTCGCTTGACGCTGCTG` the fluorescence intensity was 527 a.u.
With `CTAGCTTTTTGGACGCACGTTTTAGTTTCACTGTTCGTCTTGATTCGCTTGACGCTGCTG` the fluorescence intensity was 700 a.u.

Block 4
Target: RNA binding protein fox-1 homolog 2, RRM domain, GST-SBP tag (RBFOX2, Homo sapiens, UniProt O43251-10, residues 100-194)
Method: RNA Bind-n-Seq
Form: RNA
Matrix: in vitro
Concentration: 365 nM
Setting: natural RNA segment, single round, ends assumed
Reference: no-protein control
Reading: higher = stronger binding
Target sequence (chain): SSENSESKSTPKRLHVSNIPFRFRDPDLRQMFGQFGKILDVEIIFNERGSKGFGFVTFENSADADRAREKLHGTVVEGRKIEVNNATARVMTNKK
`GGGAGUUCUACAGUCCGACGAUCAAGAGUUUUCCAGCCCAAGGCAAAAUGGAAGAUUGCUGACCCAACCACAAACCCAUCCCUGCGGAGUCUCUCUCUCUCUCUCUCUCUCUCUCUCUCUCUCUCUCUCUCUCUGGAAUUCUCGGGUGCCAA` — result for “RBNS enrichment (R)”: 0.77.
`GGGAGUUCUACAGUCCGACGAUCCUCUACAAAGACAUUCCCUGGCAGUAAGAAAUGCUGAAAUGCUUUUUGUUGGUUUUGAAACACUCCCCCAGUUCUAGCUGUACCCCAGAAAAACAAAUACUUUCUUGAUCUGGAAUUCUCGGGUGCCAA`: “RBNS enrichment (R)” 0.414.
`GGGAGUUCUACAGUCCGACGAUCUCAACAAAAAUUUAUUGACUGAAAUGAAUUUUAAAUGCAUGUGUAUGAACUUGUUUUUCUUAAUCUUUAAGAUGUCAGUAUUCAUGUAAAUAAACAAUAGAUCCAGCUUUUGGAAUUCUCGGGUGCCAA`: “RBNS enrichment (R)” 3.85.
For `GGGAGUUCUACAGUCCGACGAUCUGUCACUUAGGGGCGGUCCCCACACUGAGUGAGAAAGGGGCAUCUGCCCUGUUGCUACUGUGAGGACCCUCCCUGGGGUUAGAAAGAAAGCAUCCAGGGUCACUCAUCUCUGGAAUUCUCGGGUGCCAA`, “RBNS enrichment (R)” read 0.269.
For `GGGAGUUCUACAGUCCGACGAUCAAAGCACUUAAAAGUGCAAGCAUGUCCUAAAUAGCCAUUUAACCUGGUAAAACAUAGGCUUUUCUGUUUAAUUAAGUAUUAGACCAGUCUGUAGAUAUAAUCUGAAAAGAUGGAAUUCUCGGGUGCCAA`, “RBNS enrichment (R)” read 0.804.
For `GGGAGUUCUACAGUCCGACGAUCUGUAGGCUUCUGUGCACCACACGGCACAGCCCACUGAUUGCUGCCACCGGCUCUGUCUUGGUCAGUGUUACCACUGCCAGCACUCAGGCUGUGGCAGAUGCCAGCAGCUCUGGAAUUCUCGGGUGCCAA`, “RBNS enrichment (R)” read 0.227.
`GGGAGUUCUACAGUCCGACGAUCCCCCUGCACAUCAGGUCUGAGAGCUAGGAGCUGGGACAGGAGUCGUCUGCAGGAGCUCAGUUGGCUACAGAGGCCUGGUUUUAGAGACCAAGCCCUCCUCUGUGUCCAGUUGGAAUUCUCGGGUGCCAA`: “RBNS enrichment (R)” 0.47.
`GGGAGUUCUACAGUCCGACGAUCUAAUGUUUGAAGUCUCAAAUGCACCGUAUUACGGUAAAUAACAUGGUUUUGAAAACUUUUUUUUAUUUUGUCACAGACCUGUUGUCAUAGUUGAAAUGAUGUUUAUUGUAUGGAAUUCUCGGGUGCCAA`: “RBNS enrichment (R)” 0.781.

Some of these lines once more (block 2):
`ATTAACAG` has an E-score of 0.179.
The E-score of `CGGTTATA` is reported as 0.242.
`AGACACGA` gave an E-score of 0.0225.
The E-score of `CGCGTATC` is reported as -0.0138.
`GCTGACAC` gave an E-score of -0.103.
For `AACAAAGG`, the E-score was 0.0289.
`AGTCGTAC` has an E-score of -0.0883.
`ACGACGCC` gave an E-score of -0.288.
`CGGTGTGC` gave an E-score of -0.276.
